Published values of several laboratories.
Compare with care: the assays were run in different laboratories. Numbers after ± are the reported error. ≈ marks a conversion by molar mass, not a printed value.

`N=C(N)NCc1ccc(C(=O)NCCCC[C@H](NC(=O)N[C@@H](CCC(=O)O)C(=O)O)C(=O)O)cc1[211At]` gave a tissue uptake of 0.79 ± 0.17 %ID/g (SCID mouse, PC-3 xenografts, thyroid; 1 h).
`CC(C)(CCCC/C=C/CCCCCC(C)(C)C(=O)O)C(=O)O`: “volume of distribution (Vss)” 0.33 L/kg (ICR mouse, plasma; intravenous, 10 mg/kg).
For `CCOP(=O)(OCC)OCCCCOC(=O)CC1=C(C)C(=Cc2ccc([S+](C)[O-])cc2)c2ccc(F)cc21` (stereo not drawn), drug level read “not detected” (HPLC; mice, lung; inhalation, dose not given, 24 h, 8 min exposure).
The thermodynamic solubility of `CCCC[C@@H]1NC(=O)[C@H](Cc2ccc(O)cc2)NC(=O)[C@@H]2CCCN2C(=O)[C@H](CC(=O)O)NC(=O)[C@H](C)NC(=O)[C@H](Cc2ccccc2)NC(=O)[C@@H]2CSCCC(=O)N3CN(CN(C3)C(=O)CCSC[C@@H](C(=O)N[C@@H](C)C(N)=O)NC1=O)C(=O)CCSC[C@H](NC(C)=O)C(=O)N[C@@H](CC(C)(C)C)C(=O)N1CCC[C@H]1C(=O)N[C@@H](CCC(=O)O)C(=O)N[C@H](CCCCNC(=O)CCc1cn(CCOCCOCCOCCN(CCOCCOCCOCCC(=O)N[C@H]3CSCCC(=O)N4CN5CN(C4)C(=O)CCSC[C@H](NC(=O)[C@@H](CC(=O)O)NC(=O)[C@H](Cc4cccc6ccccc46)NC(=O)[C@@H]4CCCN4C3=O)C(=O)N[C@@H](CCSC)C(=O)N[C@@H](CCCCNC(=N)N)C(=O)N[C@@H](CC(=O)O)C(=O)N[C@@H](Cc3c[nH]c4ccccc34)C(=O)N[C@@H](CO)C(=O)N[C@@H]([C@@H](C)O)C(=O)N3CCC[C@H]3C(=O)N3C[C@H](O)C[C@H]3C(=O)N[C@@H](Cc3c[nH]c4ccccc34)C(=O)N[C@H](C(N)=O)CSCCC5=O)CCOCCOCCOCCn3cc(CCC(=O)NCCCC[C@H]4NC(=O)[C@H](CCC(=O)O)NC(=O)[C@@H]5CCCN5C(=O)[C@H](CC(C)(C)C)NC(=O)[C@@H](NC(C)=O)CSCCC(=O)N5CN6CN(C5)C(=O)CCSC[C@H](NC(=O)[C@H](Cc5ccc(O)cc5)NC(=O)[C@@H]5CCCN5C4=O)C(=O)N[C@@H](Cc4ccccc4)C(=O)N[C@@H](C)C(=O)N[C@@H](CC(=O)O)C(=O)N4CCC[C@H]4C(=O)N[C@@H](Cc4ccc(O)cc4)C(=O)N[C@@H](CCCC)C(=O)N[C@H](C(=O)N[C@@H](C)C(N)=O)CSCCC6=O)nn3)nn1)C(=O)N1CCC[C@H]1C(=O)N[C@@H](Cc1ccc(O)cc1)C(=O)N2` is reported as 20 mg/mL (≈ 2770 µM) (aqueous buffer; pH 7.4).
`CC(C)C[C@@H](NC(=O)[C@@H](CCCNC(=N)N)NC(=O)[C@@H](Cc1c[nH]cn1)NC(=O)[C@@H](Cc1c[nH]c2ccccc12)NC(=O)[C@@H](Cc1c[nH]cn1)NC(=O)[C@@H](Cc1ccccc1)NC(=O)[C@H](NC(=O)[C@@H](Cc1ccc(O)cc1)NC(=O)CNC(=O)CNC(=O)CCOCCOCCOCCNC(=O)CN1CCN(CC(=O)O)CCN(CC(=O)O)CC1)[C@H](C)O)C(=O)N[C@H](CC(N)=O)C(=O)N1CCC[C@@H]1C(=O)O` [gallium-68 labelled] has a tissue ratio of 5.59 ± 0.83 (C57BL/6 mice, male; intravenous, 1.85 MBq, 60 min; reference: tumour over blood).
With `[2H]C([2H])([2H])C([2H])([2H])C([2H])([2H])OC(C(=O)OC1CCNCC1)(c1ccccc1)c1ccccc1` the adverse events was 0% (refers to: wound; healthy Japanese male; oral, 10 mg, 16 days, multiple ascending dose).
`CN(C(=O)Cc1ccc(Cl)c(Cl)c1)C(CN1CCCC1)c1ccccc1` (stereo in doubt) has an intrinsic clearance of 2.2 mL/min/g (human liver microsomes).
For `CC1=CC=c2ccc3c4c2[N]1[Re](=[C]=O)(=[C]=O)(=[C]=O)([C]#[N+]c1cc(C)cc(C)c1)[N]4C(C)=CC=3.O=S(=O)([O-])C(F)(F)F`, “cathodic peak potential” read -1.27 V vs SCE (cyclic voltammetry; acetonitrile; irreversible reduction).
With `CSCC[C@@H]1NC(=O)[C@@H]2CSSC[C@H](NC(=O)[C@H](CO)NC(=O)[C@H](C)N)C(=O)N[C@@H](CCCNC(=N)N)C(=O)N[C@@H]([C@@H](C)O)C(=O)N3CCC[C@H]3C(=O)N[C@@H](CCCCN)C(=O)N[C@@H](CC(=O)O)C(=O)N[C@H]3CSSC[C@H](NC(=O)[C@H](CCCCN)NC(=O)[C@H](CCCNC(=N)N)NC(=O)[C@H](CC(N)=O)NC1=O)C(=O)N[C@@H](CCCCN)C(=O)N[C@H]1CSSC[C@H](NC(=O)[C@@H]4CCCN4C(=O)[C@H](CC(=O)O)NC(=O)[C@H](C)NC3=O)C(=O)N[C@@H](C)C(=O)N[C@@H](CCCCN)C(=O)N[C@@H](CCC(=O)O)C(=O)N[C@@H]([C@@H](C)O)C(=O)NCC(=O)N[C@@H](CSSC[C@@H](C(N)=O)NC(=O)[C@H](CCCNC(=N)N)NC(=O)[C@H](CC(N)=O)NC1=O)C(=O)N1CCC[C@H]1C(=O)N[C@@H](Cc1ccc(O)cc1)C(=O)NCC(=O)N[C@@H](CCCCN)C(=O)N2` the Calcium was 7.04 mg/dL (DA rat pristane-induced arthritis, serum; subcutaneous, 0.1 mg/kg once weekly, 21 days).
For `O=P1(NCCCl)NCCCO1` (stereo not drawn), the MRT(0-inf) was 5.88 ± 1.39 h (rat, plasma; intravenous, 10 mg/kg, together with: ketoconazole 20 mg/kg oral 50 min before).
Under “maximum tolerated dose”, `CSCc1ccccn1.F[P-](F)(F)(F)(F)F.F[P-](F)(F)(F)(F)F.[Ru+2].c1ccc(-c2ccccn2)nc1.c1ccc(-c2ccnc3c2ccc2c(-c4ccccc4)ccnc23)cc1` is recorded as 300 µM (wild-type tumour-free zebrafish embryos; intravenous or retro-orbital, 1 nL, followed by light activation).
`C[C@H](CCC(=O)N[C@@H](CCCCNC(=O)C(F)(F)F)C(=O)O)[C@H]1CC[C@H]2[C@@H]3[C@H](O)C[C@@H]4C[C@H](O)CC[C@]4(C)[C@H]3C[C@H](O)[C@]12C` gave an AUC(0-24 h) of 143000 µM·h (C57BL/6J mice, gallbladder; oral, 50 mg/kg).
For `O=c1c2cc(Cl)ccc2sc2c(NCc3ccccc3)nc3ccccc3c12`, the body weight was 19 ± 2.24 g (BALB/c nude mice; i.p., 60 mg/kg).
The tissue concentration of `COC(=O)C[C@](O)(CCCC(C)(C)OC(C)=O)C(=O)O[C@@H]1C(OC)=C[C@]23CCCN2CCc2cc4c(cc2[C@H]13)OCO4` is reported as 141 ng/mL (CD1 mouse, heart; oral, 1 mg/kg, 0.5 h).
For `C[C@H](Nc1c(-c2c(F)cc(OCCCN(C)C)cc2F)c(Cl)nc2ncnn12)C(F)(F)F`, “brain/plasma unbound AUC ratio” read 0.09 ± 0.01 (CD1 mouse; intraperitoneal, 5 mg/kg, 16 h).
`O=C(c1ccc(F)cc1)C1CCN(C2Cc3c(cccc3OCC[18F])CC2O)CC1` (single isomer, unassigned; (-)) has a tissue uptake of 0.425 ± 0.075 %ID/g (Sprague-Dawley rat, male, whole brain; 60 min post-injection).
With `Cc1ccc(/C=C/C(=O)O)cc1-c1cc2c(cc1C)C(C)(C)CCC2(C)C` the blood triglycerides was 146 ± 36.9 mg/dL (Sprague-Dawley rat, male; oral, 100 mg/kg, 3 h, sesame oil vehicle).
`CC[C@H](C)C(=O)N1CCC(NC(=O)Nc2ccc(OC(F)(F)F)c(F)c2)CC1`: “subjects with severe TEAE” 0% (healthy volunteers; oral, 8 mg single dose, 14 (unit not given)).
For `CCNc1cc2[o+]c3cc(NCC)c(C)cc3c(-c3ccccc3C(=O)OCCOCC[18F])c2cc1C`, “tissue uptake ratio” read 2.3 (rat; 30 min; reference: heart over lung).
`C[C@@H]1CC[C@H]2[C@@H](C)CO[C@@H]3O[C@@]4(C)CC[C@@H]1[C@]32OO4` gave a stability accuracy of 102% (refers to: compound; rat, plasma; 800 ng/mL spiked, 24 h, autosampler at 4 °C).
`CN[C@](C)(C[18F])C(=O)O` gave a tissue uptake of 1.9 ± 0.2 %ID/g (SCID mouse DU-145 xenograft, bone; 60 min post injection).
For `CCCCCCCCCCCCCCCC(=O)OCC(CSC[C@H](N)C(=O)N[C@@H](CO)C(=O)N[C@@H](CCCCN)C(=O)N[C@@H](CCCCN)C(=O)N[C@@H](CCCCN)C(=O)N[C@@H](CCCCN)C(=O)NCCCCCC(=O)N[C@@H](CCCCN)C(=O)N[C@@H](CC(C)C)C(=O)N[C@H](C(=O)N[C@@H](Cc1ccccc1)C(=O)N[C@@H](Cc1ccccc1)C(=O)N[C@@H](Cc1ccc2ccccc2c1)C(=O)O)C(C)C)OC(=O)CCCCCCCCCCCCCCC` (stereo partly drawn), serum creatinine read “increased” (C57BL/6J mouse; intraperitoneal, 15 mg/kg twice).
`COc1cc2c3c(c4cc(OC)c(OC)cc4c2cc1OC)CN1CCCCC1C3` (stereo not drawn) has an AUC(0-inf) of 503 ng·h/mL (Sprague-Dawley rat, male; intravenous, dose not given).
`CC[C@H](C)[C@@H]1NC(=O)[C@H](CCCCN)NC(=O)[C@H](CCCCN)NC(=O)[C@H](Cc2ccc(O)cc2)NC(=O)[C@H](CC(C)C)NC(=O)[C@@H]2CCCN2C(=O)[C@H](C)NC(=O)CNC(=O)CNC(=O)[C@H](CO)NC(=O)CNC(=O)CNC(=O)[C@H](CO)NC(=O)[C@H](CCC(=O)O)NC(=O)[C@H](CC(C)C)NC(=O)[C@H](CC(C)C)NC(=O)[C@H](CCCCN)NC(=O)[C@H](CCCCN)NC(=O)[C@H]([C@@H](C)CC)NC(=O)[C@H]([C@@H](C)CC)NC(=O)[C@H](CCCCN)NC(=O)[C@H](CCCCN)NC(=O)[C@H](Cc2ccc(O)cc2)NC(=O)[C@H](CC(C)C)NC(=O)[C@@H]2CCCN2C(=O)[C@H](C)NC(=O)CNC(=O)[C@@H](NC(=O)CN)CSSC[C@@H](C(=O)N[C@@H](CCC(=O)O)C(=O)N[C@@H](CO)C(=O)O)NC(=O)[C@H](CC(C)C)NC(=O)[C@H](CCCCN)NC(=O)[C@H](CCCCN)NC(=O)[C@H]([C@@H](C)CC)NC1=O` has an HC10 of greater than 128 µM (hemolysis; uninfected human erythrocytes; 1 h).
`CC(C)[C@H](NC(=O)CNC(=O)[C@H](CCC(N)=O)NC(=O)[C@H](C)N)C(=O)O` — result for “subjects with serious adverse events”: 0% (human; 30 mg/kg single dose).
`CC(CCC(=O)NCC(=O)O)C1CCC2C3C(O)CC4CC(OC5OC(C(=O)O)C(O)C(O)C5O)CCC4(C)C3CCC12C` (stereo not drawn) gave a plasma concentration of 166 ng/mL (human, SLCO1B1 *5/*15, plasma; geometric mean, sex-adjusted).
`CC[C@H](C)[C@H](NC(=O)[C@H](CC(=O)O)NC(=O)[C@H](CO)NC(=O)[C@H](CCC(N)=O)NC(=O)[C@H](C)NC(=O)[C@H](CC(=O)O)NC(=O)[C@H](CCC(=O)O)NC(=O)[C@H](Cc1c[nH]cn1)NC(=O)[C@H](Cc1ccc(O)cc1)NC(=O)[C@H](C)NC(=O)[C@H](CC(=O)O)NC(=O)[C@H](CCC(=O)O)NC(=O)[C@H](Cc1c[nH]cn1)NC(=O)[C@H](Cc1ccc(O)cc1)NC(=O)[C@H](C)NC(=O)[C@H](CC(=O)O)NC(=O)[C@H](CCC(=O)O)NC(=O)[C@H](Cc1c[nH]cn1)NC(=O)[C@H](Cc1ccc(O)cc1)NC(=O)[C@H](C)NC(=O)[C@H](CC(=O)O)NC(=O)[C@H](CCC(=O)O)NC(=O)[C@H](Cc1c[nH]cn1)NC(=O)[C@H](Cc1ccc(O)cc1)NC(=O)[C@H](C)NC(=O)[C@H](CC(=O)O)NC(=O)[C@H](CCC(=O)O)NC(=O)[C@H](Cc1c[nH]cn1)NC(=O)[C@@H](N)Cc1ccc(O)cc1)C(=O)N[C@H](C(=O)N[C@@H](C)C(=O)N[C@@H](Cc1c[nH]cn1)C(=O)N[C@@H](CC(C)C)C(=O)N[C@@H](CC(C)C)C(=O)O)C(C)C` has an ALT of 178 ± 18 IU/L (mouse, SN model; dose not given).
`CCCCCCCC(=O)OC[C@H](NC(=O)[C@H](CO)NC(=O)CN)C(=O)N[C@@H](Cc1ccccc1)C(=O)N[C@@H](CC(C)C)C(=O)N[C@@H](CO)C(=O)N1CCC[C@H]1C(=O)N[C@@H](CCC(=O)O)C(=O)N[C@@H](Cc1cnc[nH]1)C(=O)N[C@@H](CCC(N)=O)C(=O)N[C@@H](CCCNC(=N)N)C(=O)N[C@H](C(=O)N[C@@H](CCC(N)=O)C(=O)N[C@@H](CCC(N)=O)C(=O)N[C@@H](CCCNC(=N)N)C(=O)N[C@@H](CCCCN)C(=O)N[C@@H](CCC(=O)O)C(=O)N[C@@H](CO)C(=O)N[C@@H](CCCCN)C(=O)N[C@@H](CCCCN)C(=O)N1CCC[C@H]1C(=O)N1CCC[C@H]1C(=O)N[C@@H](C)C(=O)N[C@@H](CCCCN)C(=O)N[C@@H](CC(C)C)C(=O)N[C@@H](CCC(N)=O)C(=O)N1CCC[C@H]1C(=O)N[C@@H](CCCNC(=N)N)C(=O)O)C(C)C` — result for “mean residence time”: 107 ± 11 min (refers to: DAG; human, plasma; intravenous infusion, 1 µg/kg/h, 210 min).
For `CN(C)C(CNC(=O)Nc1cc(C(F)(F)F)ccc1N1CCOCC1)c1ccncc1` (stereo not drawn), the serum osmolarity was 311 mmol/L (mouse, serum; intraperitoneal, 180 mg/kg single dose).
With `C=Cc1cc(O)cc2nc(-c3ccc(O)c([76Br])c3)oc12` the tissue uptake was 0.18 ± 0.13 %ID/g (female C57BL/6 mouse, muscle; 1 h, high dose, together with: estradiol 20 µg blocking).
